Measurements collected from several papers.
Parts stem from different laboratories: compare values within a part only. Changes are numbered by the printed parent chain.

Sample 1
Target: Prothrombin, mature alpha-thrombin (F2, Homo sapiens, UniProt P00734)
Method: aptamer microarray, sandwich
Form: DNA with 2'F-ANA
Sample: in vitro
Concentration: 200 nM
Notes: whole 15-mer aptamer, many near background
Together with: Cy3 exosite-II aptamer, 400 nM
Reading: higher = stronger binding
Strand: GGTTGGTGTGGTTGG
Modification	mean fluorescence intensity [a.u.]
2'F-ANA at 1 3 4 5 7 9 10 12 15	54
2'F-ANA at 1 2 3 4 5 6 8 10 11 13 15	52.8
2'F-ANA at 1 2 3 4 5 7 8 11 15	69.9
2'F-ANA at 1 2 3 7 10 12 14	66.7
2'F-ANA at 1 2 3 4 5 6 7 9 10 11 15	96.5
2'F-ANA at 1 2 3 4 7 8 9 11 13 14	103
2'F-ANA at 1 2 3 4 5 8 9 10 11 12 14	49.7
2'F-ANA at 1 2 4 5 7 9 10 13 14	46.3
2'F-ANA at 1 3 4 5 8 9 10 11 13 15	46.2
2'F-ANA at 2 7 9 10 12	164
2'F-ANA at 4 7 11	333
2'F-ANA at 1 2 3 5 6 7 10 13 14	45.2
2'F-ANA at 1 2 6 7 11 12 14 15	66.5
2'F-ANA at 1 5 7 9 10 15	40.9
2'F-ANA at 4 5 6 7 9 12 13 15	72.2
2'F-ANA at 1 7 8 9 11 13	163
2'F-ANA at 4 6 10 13 14	57
2'F-ANA at 3 7 11 12 15	1290
2'F-ANA at 5 6 7 8 11 12 15	128
2'F-ANA at 4 8 9 10 11 13	63.9
2'F-ANA at 3 4 5 6 8 9 11 12 13 15	102
2'F-ANA at 1 2 3 4 5 7 8 9 10 12 13 15	62.1
2'F-ANA at 4 9 15	283
2'F-ANA at 1 2 4 6 7 9 10 14	48.1
2'F-ANA at 2 3 4 6 7 12 14 15	288

Sample 2
Target: CCNE2, cyclin fold, Cln2 fusion (human)
Method: yeast growth competition, sequencing
Sample: yeast
Notes: strong parent motif
Relative to: not given
Reading: higher = stronger binding
Starting sequence: PKN2 docking peptide (human); VSAVRKLDFSDTM; partner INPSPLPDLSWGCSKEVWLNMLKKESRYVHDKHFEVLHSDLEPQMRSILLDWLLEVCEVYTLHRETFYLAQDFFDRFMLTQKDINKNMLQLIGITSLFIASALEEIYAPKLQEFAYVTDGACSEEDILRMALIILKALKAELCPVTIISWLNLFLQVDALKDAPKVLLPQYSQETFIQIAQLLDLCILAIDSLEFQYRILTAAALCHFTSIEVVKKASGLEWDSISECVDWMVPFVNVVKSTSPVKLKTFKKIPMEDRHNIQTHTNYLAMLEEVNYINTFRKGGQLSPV
Variant	normalised enrichment score
VSAVRKLCFSDTM [D8C]	3.89
VSPVRKLDFSDTM [A3P]	1.28
VSAVRTLDFSDTM [K6T]	2.75
VSAVRKLDFSDIM [T12I]	5.11
VTAVRKLDFSDTM [S2T]	4.51
VSAVRKLFFSDTM [D8F]	3.01
VSAVRKLDGSDTM [F9G]	0.431
VSARRKLDFSDTM [V4R]	5.19
VSAVRSLDFSDTM [K6S]	1.68
VSAVRPLDFSDTM [K6P]	-0.371
VSAVRKLDFSSTM [D11S]	5.19
VSAVRKLDFSRTM [D11R]	5.21
VSAVRKLPFSDTM [D8P]	0.892
VSAVRKLDFMDTM [S10M]	3.5
VSAVGKLDFSDTM [R5G]	-0.344
VSANRKLDFSDTM [V4N]	1.22
VSAVRDLDFSDTM [K6D]	0.0138
VSAVRGLDFSDTM [K6G]	0.375
VLAVRKLDFSDTM [S2L]	3.4
VSAVRNLDFSDTM [K6N]	1.11

Sample 3
Substance: PhoQ, residues 284 288 289 292 302 303 DDMDFR
Method: Sort-seq
Item: YFP reporter
Sample: E. coli
Notes: PhoQ-PhoP variant library
Together with: 10 µM Mg2+
Relative to: high Mg2+ state
Reading: higher = stronger signaling
target	fold induction
PhoP, residues 12 14 15 18 19 VHTVL (Escherichia coli, UniProt P23836)	1.12
PhoP, residues 12 14 15 18 19 ICWRQ (Escherichia coli, UniProt P23836)	0.669
PhoP, residues 12 14 15 18 19 TQCLL (Escherichia coli, UniProt P23836)	0.51

Sample 4
Target: Ras GTPase-activating protein-binding protein 1, full length (G3BP1, Homo sapiens, UniProt Q13283)
UniProt Q13283, sequence (whole entry, looked up): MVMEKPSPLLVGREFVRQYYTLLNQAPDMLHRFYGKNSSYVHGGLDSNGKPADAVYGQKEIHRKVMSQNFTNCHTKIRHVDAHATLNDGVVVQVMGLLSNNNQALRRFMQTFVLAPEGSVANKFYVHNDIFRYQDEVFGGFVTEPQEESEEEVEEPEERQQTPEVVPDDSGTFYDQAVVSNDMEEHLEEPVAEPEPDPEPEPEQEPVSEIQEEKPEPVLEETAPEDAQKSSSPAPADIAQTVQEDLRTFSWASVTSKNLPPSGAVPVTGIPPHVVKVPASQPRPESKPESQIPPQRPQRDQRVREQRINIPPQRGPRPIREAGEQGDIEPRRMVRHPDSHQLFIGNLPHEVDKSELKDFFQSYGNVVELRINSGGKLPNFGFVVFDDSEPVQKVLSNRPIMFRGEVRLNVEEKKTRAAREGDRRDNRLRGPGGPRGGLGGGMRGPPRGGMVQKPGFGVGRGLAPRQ
Method: RNA Bind-n-Seq
Form: RNA
Sample: in vitro
Concentration: 200 nM
Notes: whole 134-nt RNA, ends assumed
Together with: 150 mM LiCl
Relative to: input library
Reading: higher = stronger binding
Each molecule: 7-deaza-guanosine replaces G
Strand	log2 enrichment
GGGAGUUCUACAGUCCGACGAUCAGUCCUGUGCUACACAUCGUAUGUACCGAAUCGGGUUUUGGGGUUUUGGGGUUUUGGAAAGUAUUAUGUUACGCCGUUCGGAUCUGCACUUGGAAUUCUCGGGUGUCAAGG	-0.248
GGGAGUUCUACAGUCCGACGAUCUGGCCCUGGUGGCAUGCGGGGAGGAAGAGGUGGCCUCAUGGAUCGUGGUGGUCCCGGUGGAAUGUUCAGAGGUCGCCGUGGUGGAGACAGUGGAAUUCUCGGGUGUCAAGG	0.345
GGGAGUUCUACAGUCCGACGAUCUCAAGUCCUGUGCUACACAUCGUAUGUACCGAAUCGGGUUGGGUUGGGGUUGGGAAAGUAUUAUGUUACGCCGUUCGGAUCUGCACUUCCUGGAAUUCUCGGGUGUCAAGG	-0.104
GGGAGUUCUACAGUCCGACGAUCAGUCCUGUGCUACACAUCGUAUGUACCGAAUCGGGGUGGGGAAAGGGGAAAAAGGGGAAAGUAUUAUGUUACGCCGUUCGGAUCUGCACUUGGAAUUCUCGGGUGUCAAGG	0.391
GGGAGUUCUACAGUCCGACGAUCACCAUGCAGGUGGGCAUCUUUGGGAAGUGGGGCAAGGGGGGGAUAGGGAGGGGGGCAACACUUUGGGAACAGGUGGUCCCAGGUCGUUUCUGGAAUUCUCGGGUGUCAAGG	0.189
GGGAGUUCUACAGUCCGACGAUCAAAAUAAGCCUAAGAAAGAAUUAAUUAAAGUUCUGAUUCAGAGGGGAUAUGAUUCGGAUCCUGUGAAGGCCUGGAAAGAAGCCCAGCAAAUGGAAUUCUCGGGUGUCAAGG	-1.63
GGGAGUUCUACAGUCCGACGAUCGCAGGAAGUAAAAACAAAUGGAAAUGCUUCGGAUAGUGGCAGGGGUGGGGGUUGCUGAGGAAAGGGUGGGAUGGGAGUGGGUAAAGAGUUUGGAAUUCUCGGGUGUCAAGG	0.382
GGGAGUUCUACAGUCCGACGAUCGCAGGAAGUAAAAACAAAUGGAAAUGCUUCGGAUAGUGGCAGGGGUUGGGGUUGCUAAGGAAAGGGUGGGAUGGGAGUGGGUAAAGAGUUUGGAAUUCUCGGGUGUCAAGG	0.0156
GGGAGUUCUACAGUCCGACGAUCUGUUGCCGUGUGUCUCACCCUACCAUUUCAGAAAAAUGUUCGUUGGUGGCCUGAGCUGGGAUACUAGCAAAAAAGAUUUAAAAGACUAUUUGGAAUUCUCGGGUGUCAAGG	-3.93
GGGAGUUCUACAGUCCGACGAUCCUGUGCUACACAUCGUAUGUACCGAAUCGGGGAAAAAGGGGUUUUUGGGGAAAAAAAGGGGAAAGUAUUAUGUUACGCCGUUCGGAUCUGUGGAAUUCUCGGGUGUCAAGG	0.204
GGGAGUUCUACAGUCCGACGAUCACCAUGCAGGUGGGCAUCUUUGGGAAGUGGGGCAAGGGGGGGAUAGGGAGGGGGGUAACACUUUGGGAACAGGUGGUCACAGGUCGUUUCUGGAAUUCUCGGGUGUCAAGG	-0.161

Excerpt of the above (sample 4):
Strand	log2 enrichment
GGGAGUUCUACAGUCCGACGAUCACCAUGCAGGUGGGCAUCUUUGGGAAGUGGGGCAAGGGGGGGAUAGGGAGGGGGGUAACACUUUGGGAACAGGUGGUCACAGGUCGUUUCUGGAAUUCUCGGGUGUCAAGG	-0.161
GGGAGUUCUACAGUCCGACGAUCCUGUGCUACACAUCGUAUGUACCGAAUCGGGGAAAAAGGGGUUUUUGGGGAAAAAAAGGGGAAAGUAUUAUGUUACGCCGUUCGGAUCUGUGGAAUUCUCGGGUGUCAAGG	0.204
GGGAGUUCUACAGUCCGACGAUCUGGCCCUGGUGGCAUGCGGGGAGGAAGAGGUGGCCUCAUGGAUCGUGGUGGUCCCGGUGGAAUGUUCAGAGGUCGCCGUGGUGGAGACAGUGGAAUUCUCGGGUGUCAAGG	0.345
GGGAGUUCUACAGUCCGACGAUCACCAUGCAGGUGGGCAUCUUUGGGAAGUGGGGCAAGGGGGGGAUAGGGAGGGGGGCAACACUUUGGGAACAGGUGGUCCCAGGUCGUUUCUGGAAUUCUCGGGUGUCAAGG	0.189
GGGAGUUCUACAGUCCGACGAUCGCAGGAAGUAAAAACAAAUGGAAAUGCUUCGGAUAGUGGCAGGGGUUGGGGUUGCUAAGGAAAGGGUGGGAUGGGAGUGGGUAAAGAGUUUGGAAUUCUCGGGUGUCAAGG	0.0156
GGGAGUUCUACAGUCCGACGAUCAAAAUAAGCCUAAGAAAGAAUUAAUUAAAGUUCUGAUUCAGAGGGGAUAUGAUUCGGAUCCUGUGAAGGCCUGGAAAGAAGCCCAGCAAAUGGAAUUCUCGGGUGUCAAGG	-1.63
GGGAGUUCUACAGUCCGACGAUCAGUCCUGUGCUACACAUCGUAUGUACCGAAUCGGGGUGGGGAAAGGGGAAAAAGGGGAAAGUAUUAUGUUACGCCGUUCGGAUCUGCACUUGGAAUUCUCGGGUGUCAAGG	0.391
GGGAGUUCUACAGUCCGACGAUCGCAGGAAGUAAAAACAAAUGGAAAUGCUUCGGAUAGUGGCAGGGGUGGGGGUUGCUGAGGAAAGGGUGGGAUGGGAGUGGGUAAAGAGUUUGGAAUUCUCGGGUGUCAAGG	0.382
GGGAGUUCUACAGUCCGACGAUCUCAAGUCCUGUGCUACACAUCGUAUGUACCGAAUCGGGUUGGGUUGGGGUUGGGAAAGUAUUAUGUUACGCCGUUCGGAUCUGCACUUCCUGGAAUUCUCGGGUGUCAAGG	-0.104
